Measurements from different studies.
Lines come from different studies, so protocols differ.
CTSL: Procathepsin L (CTSL, Homo sapiens, UniProt P07711)
UniProt P07711, sequence (whole entry, looked up): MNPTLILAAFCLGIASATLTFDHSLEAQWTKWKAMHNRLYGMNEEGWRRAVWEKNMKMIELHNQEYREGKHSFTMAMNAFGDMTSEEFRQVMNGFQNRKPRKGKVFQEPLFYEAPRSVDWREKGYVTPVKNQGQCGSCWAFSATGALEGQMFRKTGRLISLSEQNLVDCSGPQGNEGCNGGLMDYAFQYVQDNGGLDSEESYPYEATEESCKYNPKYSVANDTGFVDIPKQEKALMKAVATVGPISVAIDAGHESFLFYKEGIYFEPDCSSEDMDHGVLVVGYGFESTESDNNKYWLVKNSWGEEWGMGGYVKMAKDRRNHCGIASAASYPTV
DRD3: D(3) dopamine receptor (DRD3, Homo sapiens, UniProt P35462)
UniProt P35462, sequence (whole entry, looked up): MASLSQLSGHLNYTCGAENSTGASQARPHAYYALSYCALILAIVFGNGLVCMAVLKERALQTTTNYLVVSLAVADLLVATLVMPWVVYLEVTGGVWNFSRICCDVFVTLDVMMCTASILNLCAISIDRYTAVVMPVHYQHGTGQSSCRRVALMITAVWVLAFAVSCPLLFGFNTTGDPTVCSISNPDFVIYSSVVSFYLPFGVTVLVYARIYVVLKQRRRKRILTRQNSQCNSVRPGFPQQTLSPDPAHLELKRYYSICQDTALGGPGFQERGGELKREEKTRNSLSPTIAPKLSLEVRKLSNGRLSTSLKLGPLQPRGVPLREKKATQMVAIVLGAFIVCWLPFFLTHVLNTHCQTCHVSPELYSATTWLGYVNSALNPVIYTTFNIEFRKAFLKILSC
UniProt Q00535, sequence (whole entry, looked up): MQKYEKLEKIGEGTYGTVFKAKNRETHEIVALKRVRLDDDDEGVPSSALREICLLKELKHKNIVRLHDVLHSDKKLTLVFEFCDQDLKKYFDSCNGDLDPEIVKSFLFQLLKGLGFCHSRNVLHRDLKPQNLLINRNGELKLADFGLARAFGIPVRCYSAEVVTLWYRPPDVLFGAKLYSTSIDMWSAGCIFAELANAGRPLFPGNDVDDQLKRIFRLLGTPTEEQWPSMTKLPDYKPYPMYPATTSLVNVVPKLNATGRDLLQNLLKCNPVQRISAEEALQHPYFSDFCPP
UniProt P42679, sequence (whole entry, looked up): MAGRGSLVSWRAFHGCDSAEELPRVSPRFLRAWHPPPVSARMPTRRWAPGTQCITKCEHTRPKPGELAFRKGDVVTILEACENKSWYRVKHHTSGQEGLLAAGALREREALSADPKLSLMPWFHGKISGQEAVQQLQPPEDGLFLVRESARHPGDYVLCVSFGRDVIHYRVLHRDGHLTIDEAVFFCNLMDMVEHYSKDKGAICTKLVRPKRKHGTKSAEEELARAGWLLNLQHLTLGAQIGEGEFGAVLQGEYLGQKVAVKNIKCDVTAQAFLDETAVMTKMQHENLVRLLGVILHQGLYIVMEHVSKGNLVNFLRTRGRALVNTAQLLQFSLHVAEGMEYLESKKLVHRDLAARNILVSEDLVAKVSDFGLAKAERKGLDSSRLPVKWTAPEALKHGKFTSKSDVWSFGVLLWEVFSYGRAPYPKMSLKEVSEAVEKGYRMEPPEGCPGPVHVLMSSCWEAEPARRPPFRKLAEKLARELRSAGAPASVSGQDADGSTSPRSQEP
UniProt Q8IWQ3, sequence (whole entry, looked up): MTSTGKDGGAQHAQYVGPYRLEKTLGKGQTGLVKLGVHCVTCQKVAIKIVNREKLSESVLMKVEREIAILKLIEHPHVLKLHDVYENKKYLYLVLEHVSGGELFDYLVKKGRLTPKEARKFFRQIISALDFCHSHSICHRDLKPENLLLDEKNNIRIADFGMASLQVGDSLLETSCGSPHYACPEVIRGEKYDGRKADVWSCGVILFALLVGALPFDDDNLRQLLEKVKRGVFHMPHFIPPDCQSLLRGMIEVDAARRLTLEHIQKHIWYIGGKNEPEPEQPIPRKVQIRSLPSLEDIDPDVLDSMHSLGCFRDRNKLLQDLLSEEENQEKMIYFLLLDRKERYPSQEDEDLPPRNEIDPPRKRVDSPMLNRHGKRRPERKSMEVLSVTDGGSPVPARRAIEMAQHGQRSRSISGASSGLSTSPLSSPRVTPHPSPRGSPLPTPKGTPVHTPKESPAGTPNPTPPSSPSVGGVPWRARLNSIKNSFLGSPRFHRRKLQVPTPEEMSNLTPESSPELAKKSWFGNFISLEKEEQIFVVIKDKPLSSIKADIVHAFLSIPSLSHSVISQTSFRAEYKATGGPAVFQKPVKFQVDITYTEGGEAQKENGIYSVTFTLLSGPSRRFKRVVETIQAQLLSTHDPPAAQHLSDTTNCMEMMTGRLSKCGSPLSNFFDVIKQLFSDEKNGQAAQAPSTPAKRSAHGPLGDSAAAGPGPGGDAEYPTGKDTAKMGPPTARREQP
UniProt P61075, sequence (whole entry, looked up): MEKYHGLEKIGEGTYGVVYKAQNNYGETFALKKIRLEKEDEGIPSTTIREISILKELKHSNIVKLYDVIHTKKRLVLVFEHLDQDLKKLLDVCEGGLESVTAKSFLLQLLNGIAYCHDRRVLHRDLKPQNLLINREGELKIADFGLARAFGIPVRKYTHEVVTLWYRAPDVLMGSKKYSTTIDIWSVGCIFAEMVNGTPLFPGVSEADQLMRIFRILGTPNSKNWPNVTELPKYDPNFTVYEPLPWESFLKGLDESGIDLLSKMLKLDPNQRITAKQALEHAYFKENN
UniProt O15197, sequence (whole entry, looked up): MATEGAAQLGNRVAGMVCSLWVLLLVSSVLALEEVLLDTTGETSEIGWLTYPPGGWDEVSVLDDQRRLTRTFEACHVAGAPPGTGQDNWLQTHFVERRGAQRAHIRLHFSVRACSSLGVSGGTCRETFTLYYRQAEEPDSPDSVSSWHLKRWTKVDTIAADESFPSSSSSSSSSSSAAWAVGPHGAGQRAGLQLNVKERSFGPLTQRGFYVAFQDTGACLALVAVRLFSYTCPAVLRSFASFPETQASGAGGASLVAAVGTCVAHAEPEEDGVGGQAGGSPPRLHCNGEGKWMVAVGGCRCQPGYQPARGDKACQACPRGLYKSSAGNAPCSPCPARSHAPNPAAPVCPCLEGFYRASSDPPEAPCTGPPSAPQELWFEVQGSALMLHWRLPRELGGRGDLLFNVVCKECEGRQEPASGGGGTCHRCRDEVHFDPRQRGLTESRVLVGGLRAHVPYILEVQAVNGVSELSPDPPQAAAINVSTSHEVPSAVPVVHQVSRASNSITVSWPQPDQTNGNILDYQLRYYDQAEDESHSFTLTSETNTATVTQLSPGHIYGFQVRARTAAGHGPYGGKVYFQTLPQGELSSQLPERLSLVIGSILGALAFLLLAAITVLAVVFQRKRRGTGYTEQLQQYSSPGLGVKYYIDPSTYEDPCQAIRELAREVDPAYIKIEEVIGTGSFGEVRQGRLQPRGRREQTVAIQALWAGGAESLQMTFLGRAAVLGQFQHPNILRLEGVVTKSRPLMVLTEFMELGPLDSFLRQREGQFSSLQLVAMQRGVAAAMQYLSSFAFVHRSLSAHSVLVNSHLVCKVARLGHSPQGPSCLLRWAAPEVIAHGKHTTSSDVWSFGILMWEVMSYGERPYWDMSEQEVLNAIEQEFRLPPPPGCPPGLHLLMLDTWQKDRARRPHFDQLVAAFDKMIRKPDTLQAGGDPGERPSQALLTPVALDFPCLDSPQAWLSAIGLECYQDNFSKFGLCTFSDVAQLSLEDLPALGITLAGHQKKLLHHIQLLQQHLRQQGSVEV
UniProt P16591, sequence (whole entry, looked up): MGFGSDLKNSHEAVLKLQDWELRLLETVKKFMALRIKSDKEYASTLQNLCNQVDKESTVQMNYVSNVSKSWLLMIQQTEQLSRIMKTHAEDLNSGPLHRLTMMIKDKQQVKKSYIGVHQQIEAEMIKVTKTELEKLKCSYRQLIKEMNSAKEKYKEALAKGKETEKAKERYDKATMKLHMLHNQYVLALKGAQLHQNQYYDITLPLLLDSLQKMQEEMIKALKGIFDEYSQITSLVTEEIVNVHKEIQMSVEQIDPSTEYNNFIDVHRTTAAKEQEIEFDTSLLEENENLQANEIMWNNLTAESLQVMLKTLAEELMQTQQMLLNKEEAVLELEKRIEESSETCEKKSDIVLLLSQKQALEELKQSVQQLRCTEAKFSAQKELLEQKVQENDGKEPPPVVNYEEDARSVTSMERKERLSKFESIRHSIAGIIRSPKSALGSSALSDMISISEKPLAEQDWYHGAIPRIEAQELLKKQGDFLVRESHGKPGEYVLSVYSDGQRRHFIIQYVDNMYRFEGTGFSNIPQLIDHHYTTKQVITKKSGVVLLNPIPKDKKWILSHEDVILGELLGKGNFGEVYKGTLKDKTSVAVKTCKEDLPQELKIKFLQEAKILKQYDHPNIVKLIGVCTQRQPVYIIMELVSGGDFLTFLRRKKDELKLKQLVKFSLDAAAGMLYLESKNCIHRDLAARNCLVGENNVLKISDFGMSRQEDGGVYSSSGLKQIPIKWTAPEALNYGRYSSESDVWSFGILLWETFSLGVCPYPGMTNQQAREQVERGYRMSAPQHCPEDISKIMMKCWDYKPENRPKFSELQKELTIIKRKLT
UniProt O43293, sequence (whole entry, looked up): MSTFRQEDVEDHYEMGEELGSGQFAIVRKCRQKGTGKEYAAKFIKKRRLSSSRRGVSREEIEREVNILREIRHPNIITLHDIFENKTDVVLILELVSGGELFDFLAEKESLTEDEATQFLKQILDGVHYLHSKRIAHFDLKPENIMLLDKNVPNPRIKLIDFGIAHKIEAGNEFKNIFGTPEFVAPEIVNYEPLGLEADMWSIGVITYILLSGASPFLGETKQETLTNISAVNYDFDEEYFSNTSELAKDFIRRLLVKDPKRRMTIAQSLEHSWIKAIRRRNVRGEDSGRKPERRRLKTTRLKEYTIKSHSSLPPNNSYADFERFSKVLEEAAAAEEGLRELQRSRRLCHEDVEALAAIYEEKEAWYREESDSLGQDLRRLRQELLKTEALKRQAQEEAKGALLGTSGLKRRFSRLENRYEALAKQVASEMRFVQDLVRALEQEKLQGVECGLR

COc1cc(-c2cncc3c2CN(C)Cc2cc(N4CCNCC4)ccc2-3)cc(OC)c1OC — remaining activity (Tyrosine-protein kinase Fer (FER, Homo sapiens, UniProt P16591); enzyme activity, inhibitor; 1 µM): 111%
CCCN(O)N=Nc1ccc(S(=O)(=O)Nc2onc(C)c2C)cc1 — inhibition (ABTS scavenging; 60 µg/mL): 29.8%
Cc1cc([C@@H](C)Nc2ccccc2C(=O)O)c2nc(N3CCC(F)(F)CC3)c(C#N)c(=O)n2c1 — remaining binding (Tyrosine-protein kinase JAK3, JH1 (JAK3, Homo sapiens, UniProt P52333); binding, competition with immobilised ligand; 10 µM): 100%
Nc1ncnc2occ(-c3ccc(NC(=O)Nc4cc(C(F)(F)F)ccc4F)cc3)c12 — remaining signal (Mast/stem cell growth factor receptor Kit (KIT, Homo sapiens, UniProt P10721); cell-free assay, inhibitor; 20 µM): 0%
Nc1ccn([C@@H]2O[C@H](CO)[C@@H](O)C2(F)F)c(=O)n1 — viability (HEK293; cell growth or viability, MTT; 0.3125 µg/mL, 24 h): 89.4%
CC1OC(Oc2c(-c3ccc(O)c(O)c3)oc3cc(O)cc(O)c3c2=O)C(O)C(O)C1O (stereo not shown) — remaining activity (CTSL; enzyme activity, inhibitor; 100 µM): 73.5%
COc1cccc(OC)c1-c1cc(C(=O)NC2(C(=O)O)C3CC4CC(C3)CC2C4)nn1-c1ccc(C(=O)N(C)CCCN(C)CCCN(C)C(=O)CN2CCN(CC(=O)[O-])CCN(CC(=O)[O-])CCN(CC(=O)[O-])CC2)cc1C(C)C.[177Lu+3] (stereo not shown) — tracer uptake (HT-29 tumour model; host not given, blood; 7 days, tumour-bearing): 0.7 %ID/g
O=C(CCc1ccc(O)c(O)c1)NCCCNCCCCNCCCNC(=O)CCc1ccc(O)c(O)c1 — remaining activity (CTSL; enzyme activity, inhibitor; 100 µM): 133%
Cc1[nH]c(C)c(S(=O)(=O)Nc2ccc(C(F)(F)F)c(Cl)c2)c1C(=O)N1CC[C@H](F)C1 — Emax (DRD3; β-arrestin recruitment, agonist; 90 min): 87%
CCCCCCCCCC=O — remaining activity (CTSL; enzyme activity, inhibitor; 100 µM): 71%
CCCCC(=O)Nc1ccc(-c2ccc3ncn(CCC)c(=O)c3c2)cn1 — remaining binding (Death-associated protein kinase 3 (DAPK3, Homo sapiens, UniProt O43293); binding, competition with immobilised ligand; 0.5 µM): 100%
CC1OC(OCC2OC(OCCc3ccc(O)c(O)c3)C(O)C(O)C2OC(=O)/C=C/c2ccc(O)c(O)c2)C(O)C(O)C1O (stereo not shown) — remaining activity (CTSL; enzyme activity, inhibitor; 100 µM): 76.8%
CNc1ncc2c(/C=C/C(=O)N3CCC(OC)CC3)nn(Cc3cccc(C(F)(F)F)c3)c2n1 — remaining activity (Serine/threonine-protein kinase BRSK2 (BRSK2, Homo sapiens, UniProt Q8IWQ3); enzyme activity, inhibitor, radiometric; 1 µM): 102%
Cc1[nH]c(C)c(S(=O)(=O)Nc2ccc(C(F)(F)F)c(Cl)c2)c1C(=O)N1C[C@@H](F)[C@@H](F)C1 — Emax (DRD3; β-arrestin recruitment, agonist; 90 min): 104%
CC[C@H](C)[C@H](NC(=O)[C@H](CCC(N)=O)NC(=O)[C@@H](NC(=O)[C@H](CCSC)NC(=O)[C@H](CCCCN)NC(=O)[C@H](CO)NC(=O)[C@@H](NC(=O)[C@H](CCSC)NC(=O)[C@H](CC(C)C)NC(=O)[C@H](CC(N)=O)NC(=O)[C@@H](NC(=O)[C@@H](NC(=O)[C@H](CO)NC(=O)[C@H](CC(C)C)NC(=O)[C@H](C)NC(=O)[C@H](CCCNC(=N)N)NC(=O)[C@H](CCC(=O)O)NC(=O)[C@H](Cc1ccc(O)cc1)NC(=O)[C@H](Cc1ccccc1)NC(=O)[C@H](C)NC(=O)[C@H](CC(N)=O)NC(=O)[C@@H](N)CCCCN)[C@@H](C)CC)[C@@H](C)CC)[C@@H](C)O)C(C)C)C(=O)N[C@@H](CC(N)=O)C(=O)N[C@H](C(=O)O)C(C)C — remaining activity (Cyclin-dependent kinase 5, with p25 (CDK5, Homo sapiens, UniProt Q00535); enzyme activity, inhibitor, radiometric; 250 µM, 20 min): 27%
Oc1ccc(CC2NCCc3cc(O)c(O)cc32)cc1 (stereo not shown) — remaining activity (CTSL; enzyme activity, inhibitor; 100 µM): 64.5%
C=CC(=O)N1CCC(COCC(=O)N2CCN(c3nc(-c4cnc(N)nc4C(F)F)nc(N4CCOC[C@@H]4C)n3)CC2)CC1 — remaining binding (Megakaryocyte-associated tyrosine-protein kinase (MATK, Homo sapiens, UniProt P42679); binding, competition with immobilised ligand; 1 µM): 100%
CC[C@H](C)[C@H](NC(=O)[C@H](CCC(N)=O)NC(=O)[C@H](CC(C)C)NC(=O)[C@H](CCSC)NC(=O)[C@H](CCCCN)NC(=O)[C@H](CO)NC(=O)[C@H](CO)NC(=O)[C@H](CCSC)NC(=O)[C@H](CC(C)C)NC(=O)[C@H](CC(N)=O)NC(=O)[C@@H](NC(=O)[C@@H](NC(=O)[C@H](CO)NC(=O)[C@H](CC(C)C)NC(=O)[C@H](CS)NC(=O)[C@H](CCCNC(=N)N)NC(=O)[C@H](CC(=O)O)NC(=O)[C@H](Cc1c[nH]c2ccccc12)NC(=O)[C@H](Cc1ccccc1)NC(=O)[C@H](C)NC(=O)[C@H](CCC(=O)O)NC(=O)[C@@H](N)CCCCN)C(C)C)[C@@H](C)CC)C(=O)N[C@@H](CC(N)=O)C(=O)N[C@@H](C)C(=O)O — remaining activity (Cyclin-dependent kinase 5, with p35 (CDK5, Homo sapiens, UniProt Q00535); enzyme activity, inhibitor, radiometric; 10 µM, 20 min): 98%
O=C(c1ccc(F)cc1)C1CCN(CCn2c(=O)[nH]c3ccccc3c2=O)CC1 — compound remaining (metabolic stability, mass spectrometry; mouse, liver microsomes; 30 min): 32.9%
COc1cccc(-c2n[nH]c(SCc3ccccn3)n2)c1OC — concentration (female Sprague-Dawley rat, plasma; intravenous, 1 mg/kg, 1 h, single dose): 112 ng/mL
C[C@H]1CCN(c2nccc(-c3cnn4ncccc34)n2)C1 — remaining signal (Cyclin-dependent kinase 2 homolog (CRK2, Plasmodium falciparum, UniProt P61075); cell-free assay; 1 µM): 69%
C1=C/COCc2cc(ccc2OCCN2CCCC2)Nc2nccc(n2)-c2cccc(c2)COC/1 — remaining binding (Ephrin type-B receptor 6 (EPHB6, Homo sapiens, UniProt O15197); binding; 0.1 µM): 14%
O=C(/C=C/c1ccc(O)cc1)c1ccccc1 — remaining activity (CTSL; enzyme activity, inhibitor; 100 µM): 48.5%
Cc1[nH]c(C)c(S(=O)(=O)Nc2ccc(Cl)c(Cl)c2)c1C(=O)N1CCC(F)(F)C1 — Emax (DRD3; β-arrestin recruitment, agonist; 90 min): 92%
Cc1cccc(N(O)N=Nc2ccc(S(=O)(=O)Nc3nccs3)cc2)c1 — inhibition (ABTS scavenging; 60 µg/mL): 45.8%

Some of these lines once more:
O=C(CCc1ccc(O)c(O)c1)NCCCNCCCCNCCCNC(=O)CCc1ccc(O)c(O)c1 — remaining activity (CTSL; enzyme activity, inhibitor; 100 µM): 133%
Cc1[nH]c(C)c(S(=O)(=O)Nc2ccc(C(F)(F)F)c(Cl)c2)c1C(=O)N1CC[C@H](F)C1 — Emax (DRD3; β-arrestin recruitment, agonist; 90 min): 87%
CCCCCCCCCC=O — remaining activity (CTSL; enzyme activity, inhibitor; 100 µM): 71%
CCCCC(=O)Nc1ccc(-c2ccc3ncn(CCC)c(=O)c3c2)cn1 — remaining binding (Death-associated protein kinase 3 (DAPK3, Homo sapiens, UniProt O43293); binding, competition with immobilised ligand; 0.5 µM): 100%
